Results gathered from unrelated publications.
Every numbered part comes from another study and shows a few of its results, in no order. Changes are numbered by the printed parent chain.
Chain of UniProt Q9C7I9 (whole entry, looked up): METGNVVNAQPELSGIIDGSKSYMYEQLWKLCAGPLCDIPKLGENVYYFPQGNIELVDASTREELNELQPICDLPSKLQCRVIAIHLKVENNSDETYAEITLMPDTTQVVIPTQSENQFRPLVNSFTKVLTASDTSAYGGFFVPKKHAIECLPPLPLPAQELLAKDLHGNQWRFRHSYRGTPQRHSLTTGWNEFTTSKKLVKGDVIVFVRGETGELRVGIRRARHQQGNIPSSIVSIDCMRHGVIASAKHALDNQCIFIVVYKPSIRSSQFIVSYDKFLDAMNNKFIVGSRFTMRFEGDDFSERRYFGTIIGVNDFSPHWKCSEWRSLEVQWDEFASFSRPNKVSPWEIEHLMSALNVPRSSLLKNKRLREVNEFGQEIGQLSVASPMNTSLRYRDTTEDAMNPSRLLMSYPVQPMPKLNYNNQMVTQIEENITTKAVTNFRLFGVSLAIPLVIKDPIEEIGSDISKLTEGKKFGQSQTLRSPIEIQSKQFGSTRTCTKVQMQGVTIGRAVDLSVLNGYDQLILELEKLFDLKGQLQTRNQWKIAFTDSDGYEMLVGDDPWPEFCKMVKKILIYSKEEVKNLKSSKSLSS

Set 1 — read-out: peptide-MHC binding; form: peptide; tested at: concentration not given
Target: HLA class I histocompatibility antigen, A alpha chain, allele A*80:01 (Homo sapiens, UniProt P04439)
Molecule	binding
AIFQSSMTK	inactive
GRYNLISPK	inactive
ILRNPGYAL	inactive
IIRVTSELL	inactive

Set 2 — method: protein-binding microarray; form: hairpin DNA; medium: in vitro; tested at: not given; baseline: not given; reading: higher = stronger binding
Target: Microphthalmia-associated transcription factor, full length (MITF, Homo sapiens, UniProt O75030-10, residues 1-413)
Setting: whole hairpin DNA, median over replicate spots
Oligonucleotide	median fluorescence [a.u.]
CACTTAGCACGTGACTTTGGTCCTCCAAAGTCACGTGCTAAGTGACACTC (5mC at 15)	29000
GAGGCCTACCACGTGCTGCCTCCTGGCAGCACGTGGTAGGCCTCACACTC	22800
CACTTAGCACGTCATTTTGGTCCTCCAAAATGACGTGCTAAGTGACACTC	4990
GAGGCCTAGCCGGTGCTGCCTCCTGGCAGCACCGGCTAGGCCTCACACTC (5mC at 11 33)	5510
CACTTTGCACGTGATTTTGGTCCTCCAAAATCACGTGCAAAGTGACACTC	26500
CACTTAGCACGCGATTTTGGTCCTCCAAAATCGCGTGCTAAGTGACACTC (5mC at 12)	12100
GAGGCCTAGCCGGTGCTGCCTCCTGGCAGCACCGGCTAGGCCTCACACTC (5mC at 33)	5460
CACTTAGCAAGTGATTTTGGTCCTCCAAAATCACTTGCTAAGTGACACTC	4610

Set 3 — target: CCNB2, cyclin fold, Cln2 fusion (human); method: yeast growth competition, sequencing; medium: yeast; setting: strong parent motif; baseline: not given; reading: higher = stronger binding
Parent: viral docking peptide; TSVRRALFTGGSD; partner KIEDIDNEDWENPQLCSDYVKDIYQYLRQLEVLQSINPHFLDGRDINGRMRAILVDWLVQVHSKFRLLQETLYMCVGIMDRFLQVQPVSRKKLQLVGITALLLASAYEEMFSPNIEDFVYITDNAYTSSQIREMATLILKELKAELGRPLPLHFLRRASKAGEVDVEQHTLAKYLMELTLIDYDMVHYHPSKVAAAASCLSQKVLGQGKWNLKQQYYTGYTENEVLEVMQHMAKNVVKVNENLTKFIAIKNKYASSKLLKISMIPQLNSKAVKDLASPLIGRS
Change	normalised enrichment score
TSVRRATFTGGSD [L7T]	0.0913
TSVRRALKTGGSD [F8K]	0.163
TSVRRELFTGGSD [A6E]	0.641
TSVRRALWTGGSD [F8W]	0.305
TSVRRALFTGSSD [G11S]	0.727
TSVRRAYFTGGSD [L7Y]	0.634
TSVRRLLFTGGSD [A6L]	-0.0302
TSVRRALFLGGSD [T9L]	0.588
TSVRRALFTAGSD [G10A]	0.829
TSVRRALFTSGSD [G10S]	1.07
TSVRRALFTGGKD [S12K]	0.428
TSVRRALFTPGSD [G10P]	0.273
TEVRRALFTGGSD [S2E]	0.833
TSFRRALFTGGSD [V3F]	0.658

Set 4 — method: RNA Bind-n-Seq; form: RNA; medium: in vitro; tested at: not given; baseline: input RNA pool; reading: higher = stronger binding
Target: RING finger protein unkempt homolog, zinc fingers 1-6, GST-SBP tag (UNK, Homo sapiens, UniProt Q9C0B0, residues 30-357)
Chain of UniProt Q9C0B0 (30-357, looked up): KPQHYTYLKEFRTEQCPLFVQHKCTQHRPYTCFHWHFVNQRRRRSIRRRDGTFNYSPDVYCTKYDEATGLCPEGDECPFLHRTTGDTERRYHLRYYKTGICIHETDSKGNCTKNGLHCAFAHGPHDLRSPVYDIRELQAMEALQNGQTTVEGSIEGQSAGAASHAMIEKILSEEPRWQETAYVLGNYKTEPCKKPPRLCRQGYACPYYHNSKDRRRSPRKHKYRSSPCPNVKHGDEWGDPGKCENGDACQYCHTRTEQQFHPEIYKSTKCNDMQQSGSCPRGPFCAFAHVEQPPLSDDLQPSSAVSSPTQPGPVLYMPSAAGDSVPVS
Setting: RNA with constant flanks, human-mouse chimeric sites, ends assumed
Constant ends, left off below: GGGAGUUCUACAGUCCGACGAUC … CAACAGAGGAUUGAGCAUCA
Oligonucleotide	bound/input enrichment [ratio]
GGCCUGGGACCGUCCUGGGCUAGUACAAAUAGCGGCAGUGGAGGCUCGAGAGGAAAGUUGUUAGUGGGAGGCAGUGGUAGAGGCCGUCAUGUACGGUCCUUUACUCGUAAAAAUCCUUCU	0.19
UCUUAACUUAUUCAUUUAACUUAUUUUUAGCACUUAGUAAAUAUUGUUAGUCUUAGAGAGUAGUUCACAUUUUUUGAGAAGCAUGCCCUCCCUGUCCAUUUGUCUUAUAACAUGACCCAG	117
UACUACUAUGAUGGUGAUAUUGGCAAUUAUUAUUAUGGCCAGGGUCAUCCCAUGAAGCCUCAUAGAAUCCGGAUGACUCAUAACUUGCUGUUAAAUUAUGGCUUAUACCGAAAAAUGGAA	0.1
CGCUGGCCCAAGCUGAUGGACUCUGAUGGCCUCCAUCUCUCAGGCACGUGUGCCUUCUCUUAGUCCCUGUUUUCGGGAUGUUAUGAACAGUAUCAUGGUUUGACAGAAGCACCAGCUUUG	0.136
GCGGCAGAAUCAUGGAGGACAUAAUGCAGCUCCCCAAAGCGCGCGUCAACGCCAGCAUGCUAGCUCAGUAUAUCGACAAGCCUGUCUGCUUCGUGGGGAAGCUGGAAAAGAUUCAUCCCA	0.103
AUCAAAUACUUUGGGGACAUCAUUAGUGUGGGACAGAGAUUGUUGCAAGGGGCCCGGAUCUUAGGGAUUCCAGUUAUCAUAACGGAACAAUACCCCAAAGGACUUGGCAGCACCGUUCAA	0.294
GGACAUCUGUCAAAUUGUUAUGUUCCUGUGAAACAAGUGAACACUCUGAUACACUUCAUCUGCUUGUACAUCUGUAUGAUAGAGAAAUGUAAAUAUGAAUAUAUUUAAUGAAUUCAACUU	0.165
GCAAAGGAUGAUGAGGCAGCUGCAGUUGCCCUUUCCUCUCUCGUUCAUGCUUUGGAUGAGUUAAACAUGGUCGCCAUAGUUCGAUAUGCUUAUGACAAAAGAUCUAAUCCUCAAGUUGGU	0.611

Other studies, line by line
B1: ARF17 (Arabidopsis thaliana, UniProt Q84WU6); chain MSPPSATAGDINHREVDPTIWRACAGASVQIPVLHSRVYYFPQGHVEHCCPLLSTLPSSTSPVPCIITSIQLLADPVTDEVFAHLILQPMTQQQFTPTNYSRFGRFDGDVDDNNKVTTFAKILTPSDANNGGGFSVPRFCADSVFPLLNFQIDPPVQKLYVTDIHGAVWDFRHIYRGTPRRHLLTTGWSKFVNSKKLIAGDSVVFMRKSADEMFIGVRRTPISSSDGGSSYYGGDEYNGYYSQSSVAKEDDGSPKKTFRRSGNGKLTAEAVTDAINRASQGLPFEVVFYPAAGWSEFVVRAEDVESSMSMYWTPGTRVKMAMETEDSSRITWFQGIVSSTYQETGPWRGSPWKQLQITWDEPEILQNVKRVNPWQVEIAAHATQLHTPFPPAKRLKYPQPGGGFLSGDDGEILYPQSGLSSAAAPDPSPSMFSYSTFPAGMQGARQYDFGSFNPTGFIGGNPPQLFTNNFLSPLPDLGKVSTEMMNFGSPPSDNLSPNSNTTNLSSGNDLVGNRGPLSKKVNSIQLFGKIITVEEHSESGPAESGLCEEDGSKESSDNETQLSLSHAPPSVPKHSNSNAGSSSQG
Molecule	partner	test	conditions	how to read	measurement	value
B1 (ARF17)	ARF20 484-590 (Arabidopsis thaliana, UniProt Q9C7I9)	two-hybrid	weak activation fusion	baseline: out of 4 tests, higher = firmer interaction	positive tests	0

Repeated from above (set 3):
Change	normalised enrichment score
TSVRRELFTGGSD [A6E]	0.641
TSVRRALWTGGSD [F8W]	0.305
TSVRRALFTGSSD [G11S]	0.727
TSVRRAYFTGGSD [L7Y]	0.634
